Published values gathered from unrelated publications.
Each line is one published result; not all experiments were run side by side. Numbers after ± are the reported error.
Cell line: MCF7

CC(=O)[O][Pt]([Cl])([Cl])[O]C(C)=O.N.N gave an IC50 of 39.5 ± 4.45 µM (cytotoxicity; 72 h).
O=C(NCCCCNc1n[n+]([O-])c2ccccc2[n+]1[O-])C(F)(F)F gave an IC50 of 35.7 ± 7.9 µM (cytotoxicity, MTT; 10% FBS medium; 6 h + 18 h, hypoxia 3% O2).
For CC(=O)OC[C@H]1O[C@@H](N2C(=O)/C(=C/c3ccc4c(c3)OCCO4)SC2=S)[C@H](OC(C)=O)[C@@H](OC(C)=O)[C@@H]1OC(C)=O, the IC50 was 6.1 µM (cell growth or viability, MTT; 48 h).
The IC50 of O=C(c1ccncc1)N1N=C2/C(=C/c3ccc(Br)cc3)CCCC2C1c1ccc(Br)cc1 (stereo not drawn) is reported as 0.0365 µM (cell growth or viability, MTT).
The IC50 of N=C(N)NCCC[C@H](N)C(=O)NC(CC(=O)N[C@@H](Cc1c[nH]c2ccccc12)C(=O)O)c1ccc2ccccc2c1 (stereo partly drawn) is reported as over 100 µM (cell growth or viability, ATP luminescence; 72 h).
CCN(CC)CCO/N=C1/C=C2CCC3C(CC[C@]4(C)/C(=C/c5ccccn5)CCC34)[C@@]2(C)CC1 (stereo partly drawn) has an IC50 of over 100 µM (cell growth or viability, MTT; 72 h).
With O=[C]=[Re-2]1(=[C]=O)(=[C]=O)([O]C(=O)c2cccnc2)[n+]2ccc(-c3ccccc3)c3ccc4c(-c5ccccc5)cc[n+]1c4c32 the IC50 was 3.57 µM (cell growth or viability, resazurin; 72 h).
With [NH2][Pt]1([NH2])([Cl])([O]C(=O)C(F)(F)F)[O]C(=O)C2(CC(=O)C2)C(=O)[O]1 the IC50 was 22.6 µM (cell growth or viability, MTT).
The IC50 of CC(=O)N1N=C(C)CC1c1ccccc1 (stereo not drawn) is reported as 6.2 µM (cell growth or viability, LDH; 48 h).
With CC(=O)OC[C@H]1O[C@@H](Sc2nnc(-c3cc4ccccc4[nH]3)n2-c2ccc(Cl)cc2)[C@H](OC(C)=O)[C@@H](OC(C)=O)[C@@H]1OC(C)=O the IC50 was 19.6 µM (cell growth or viability, MTT).
C/C(=N\N=c1/[nH]c(-c2ccccc2)cs1)c1c(O)c2ccccc2oc1=O gave an IC50 of 34.8 µM (cell growth or viability, MTT; 48 h).
CCC(=C(c1ccc(O)cc1)c1ccc(OCCN(C)CCOCCOCCOCCOCCOCCOCCOCCOCCOCCOCCOCCN(C)CCOc2ccc(C(=C(CC)c3ccccc3)c3ccc(O)cc3)cc2)cc1)c1ccccc1 (mixture of isomers) has an IC50 of 0.15 µM (cell growth; 96 h, Z-Z:Z-E:E-E isomer mix 1:2:1).
The IC50 of C#CCOCC1=C(C(=O)OCC)C(c2cccc(Cl)c2)N2C=CSC2=N1 (stereo not drawn) is reported as 62.6 µM (cell growth or viability, MTT).
CCN1CCC2(CC1)C/C(=N\NC(=O)Nc1ccc(Cl)cc1)c1ccccc1O2 has an IC50 of 23.6 µM (cell growth or viability, MTT; 48 h).
C=C(C)C(O)C(O)CC(C)C1CCC23CC12CCC1C2(C)CCC(O)C(C)(C)C2CC(OC(C)=O)C13C (stereo not drawn) gave an IC50 of over 10 µM (cell growth or viability, MTT).
For O=C(NCCCNc1n[n+]([O-])c2ccccc2[n+]1[O-])C(F)(F)F, the IC50 was 165 ± 10.2 µM (cytotoxicity, MTT; 24 h, normoxia).
O=C(O[C@@H]1Cc2c(O)cc(O)cc2O[C@@H]1c1cc(O)c(O)c(O)c1)c1cc(O)c(O)c(O)c1 gave an IC50 of 72.8 µM (cell growth or viability, CCK-8; 24 h).
For CSc1ccc(-c2noc(-c3cccs3)c2C(F)(F)F)cc1, the IC50 was 22.4 µM (cell growth or viability, MTT; 48 h).
With N[C@@H](Cc1c[nH]c2ccccc12)C(=O)NC(CC(=O)N[C@@H](Cc1ccccc1)C(=O)O)c1ccc2ccccc2c1 (stereo partly drawn) the IC50 was over 100 µM (cell growth or viability, ATP luminescence; 72 h).
With COC(=O)CNc1cc(CS(=O)(=O)c2ccc3ccccc3c2)ccc1OC the IC50 was 0.14 µM (cell growth or viability, MTS; 48 h).
Oc1ccc2c(c1)[O][Pt-2]1([Cl])[N+](=C2)CC[NH+]1c1ccccc1 (stereo not drawn) has an IC50 of 76.5 µM (cell growth or viability, MTT).
For COc1ccc2cc3[n+](cc2c1OCc1cn(Cc2cccc(Cl)c2)nn1)CCc1cc2c(cc1-3)OCO2, the IC50 was 66.1 µM (cell growth or viability, MTT).
For CCCCCCCCn1c(-c2cccnc2)nc(-c2ccc(C)cc2)c1-c1ccc(C)cc1, the IC50 was over 100 µM (cell growth or viability, SRB; 48 h).
With CCCCCCCCCCCCCCCOC(=O)/C=C/c1cc(O)c(O)c(OC)c1 the IC50 was 1.2 ± 0.2 µg/mL (cell viability, MTT; 48 h, serum-free medium).
With CCCc1cc(O)nc(SCCOC(=O)[C@]2(C)CCC[C@]3(C)c4ccc(C(C)C)cc4CCC23)n1 (stereo partly drawn) the IC50 was 7 µM (cell growth or viability, MTT; 48 h).
The IC50 of C[C@@H]1CC[C@@H]([C@@](O)(CNCc2ccccc2F)COCc2ccccc2)[C@H](OCc2ccccc2)C1 is reported as 5.1 µM (cell growth or viability, MTT; 72 h).
With CC1(C)CC(=O)C2=C(C1)OC(N)=C(C#N)C2c1ccccc1F (stereo not drawn) the IC50 was 225 µM (cell growth or viability, MTT; 24 h).
O=C(Cc1ccccc1)NC(=S)Nc1nccs1 gave an IC50 of 55.4 µM (cell growth or viability, MTT; 48 h).
The IC50 of NC(=S)NNC(=O)c1cc2ccccc2oc1=O is reported as 28.6 µM (cell growth or viability, SRB; 72 h).
For CC1=C2[O][Ru-]([Cl])[O+]=C2C=CN1CCCCCCN1C=CC2=[O+][Ru-]([Cl])[O]C2=C1C.Cc1ccc(C(C)C)cc1.Cc1ccc(C(C)C)cc1, the IC50 was 15.2 µM (cell growth or viability, crystal violet; 96 h).
CCCCn1c(-c2cccnc2)nc(-c2ccc(C)cc2)c1-c1ccc(C)cc1 gave an IC50 of over 100 µM (cell growth or viability, SRB; 48 h).
CSC(=NN=C(C)c1ccc(S(=O)(=O)N2CCC(C)CC2)cc1)N(C)C gave an IC50 of 3.53 to 5.58 µM (cell growth, MTT).
With C[C@@H]1CC[C@@H]([C@@](O)(CNCc2ccc(F)cc2)COCc2ccccc2)[C@H](OCc2ccccc2)C1 the IC50 was 2.6 µM (cell growth or viability, MTT; 72 h).
CC(C)=CCC1=C([O-])C(=O)c2ccccc2C1=O.O=[N+]([O-])[O-].[Cu+2].c1ccc(-c2cccc(-c3ccccn3)n2)nc1 has an IC50 of 39.2 ± 4.3 µM (cell viability, MTT; 24 h).
For COc1c(O)cc2oc3c(Br)c(O)c(CC=C(C)C)c(O)c3c(=O)c2c1CC=C(C)C, the IC50 was 22.2 µM (cell growth or viability; 48 h).
COC(C)(C)/C=C/C[C@@](C)(O)[C@H]1CC[C@]2(C)[C@@H]1CC[C@@H]1[C@@]3(C)CCC(=O)C(C)(C)[C@@H]3CC[C@]12C has an IC50 of 22.2 µM (cell growth or viability, SRB).
The IC50 of CSc1nc(Nc2cccc(/C(C)=N/NC(=O)c3ccccc3Cl)c2)c(C#N)c(-c2ccccc2)n1 is reported as 9.77 µM (cell growth or viability, MTT; 48 h).
CC(C)c1cccc(C(C)C)c1-n1c(Cl)c(Cl)n(-c2c(C(C)C)cccc2C(C)C)c1=[Se].[Cl][Ag] has an IC50 of 2.9 µM (cell growth or viability, MTT; 72 h).
The IC50 of CCN(CC)c1ccc2c(c1)[O][Pd]([CH2]C#N)[N](c1ccccc1C)c1ncccc1N=C2 is reported as 32.1 µM (cell growth or viability, MTT; 48 h).
For CC(=O)[O][Ag]=[c]1n(C)ccn1CC(O)c1ccccc1 (stereo not drawn), the IC50 was 18.3 µM (cell growth or viability, MTT; 72 h).
Oc1ccc2c(c1)OCc1c-2oc2cc3c(cc12)OCO3 has an IC50 of 21.2 µM (cell growth or viability, MTT; 72 h).
For CC(=O)[O-].O.[Cu+2].[O-]c1ccc(Br)cc1C=NCCN1CCOCC1, the IC50 was 20.5 µg/mL (cell viability, MTT; 72 h).
For O=C(/C=C/c1ccccc1)c1ccc(OCc2cn(CCN3C(=O)c4cccc5cccc(c45)C3=O)nn2)cc1, the IC50 was over 100 µM (cell growth or viability, MTT; 24 h).
Oc1ncnc2c1sc1sc3c(O)ncnc3c12 has an IC50 of 8.96 µM (cell growth or viability, MTT).
CC(C)[C@H](NC(=O)[C@H](C(C)C)N(C)C)C(=O)N(C)[C@H](C(=O)N1CCC[C@H]1C(=O)O)C(C)C has an IC50 of 41 ± 6 µM.
With COc1cc(OC)c(/C=C/C(=O)c2c(OC)cc(OC)cc2OC)c(OC)c1 the IC50 was over 100 µM (cell growth or viability, MTT; 48 h).
With NS(=O)(=O)c1ccc(/N=N/c2ccc(O)c(/C=N/c3cc(Cl)ccc3O)c2)cc1 the IC50 was 5.07 µM (cell growth or viability, MTT; 48 h).
CC(=NN=c1sc(C(=O)c2ccccc2)nn1-c1ccccc1)c1ccc(S(=O)(=O)N2CCC(C)CC2)cc1 has an IC50 of 4.29 µM (cell growth or viability, MTT).
NS(=O)(=O)c1ccc(/N=N/c2ccc(O)c(/C=N/CCc3c[nH]c4ccccc34)c2)cc1 gave an IC50 of 5.89 µM (cell growth or viability, MTT; 72 h).
COc1ccc2cc3[n+](cc2c1OCc1cn(Cc2ccc(Cl)cc2Cl)nn1)CCc1cc2c(cc1-3)OCO2 gave an IC50 of 28.2 µM (cell growth or viability, MTT).
For O=C(CSc1nnc(-c2ccccc2)o1)N1CCC(=C2c3ncccc3CCc3cc(Cl)cc(Br)c32)CC1, the IC50 was over 120 µM (cell growth or viability, SRB).
For CC(=O)c1ccc(NC(=O)CCc2nc3cc(Cl)ccc3[nH]c2=O)cc1, the IC50 was 76.7 µM (cell growth or viability, MTT).
With COc1c(O)cc2oc3cc4c(c(O)c3c(=O)c2c1CC(O)C(C)(C)O)CC(O)O4 (stereo not drawn) the IC50 was over 40 µM (cell growth or viability; 48 h).
CCC(C(=O)O)C1CCC(C)C(C(C)C(O)C(C)C(=O)C(CC)C2OC3(C=CC(NCc4cn(C56CC7CC(CC(C7)C5)C6)nn4)C4(CCC(C)(C5CCC(O)(CC)C(C)O5)O4)O3)C(C)CC2C)O1 (stereo not drawn) gave an IC50 of 0.1 µM (cell growth or viability, resazurin; 72 h).

Some of these lines once more:
For O=C(NCCCNc1n[n+]([O-])c2ccccc2[n+]1[O-])C(F)(F)F, the IC50 was 165 ± 10.2 µM (cytotoxicity, MTT; 24 h, normoxia).
The IC50 of CSc1nc(Nc2cccc(/C(C)=N/NC(=O)c3ccccc3Cl)c2)c(C#N)c(-c2ccccc2)n1 is reported as 9.77 µM (cell growth or viability, MTT; 48 h).
CCCCn1c(-c2cccnc2)nc(-c2ccc(C)cc2)c1-c1ccc(C)cc1 gave an IC50 of over 100 µM (cell growth or viability, SRB; 48 h).
The IC50 of C[C@@H]1CC[C@@H]([C@@](O)(CNCc2ccccc2F)COCc2ccccc2)[C@H](OCc2ccccc2)C1 is reported as 5.1 µM (cell growth or viability, MTT; 72 h).
The IC50 of CC(=O)N1N=C(C)CC1c1ccccc1 (stereo not drawn) is reported as 6.2 µM (cell growth or viability, LDH; 48 h).
For CC(=O)OC[C@H]1O[C@@H](N2C(=O)/C(=C/c3ccc4c(c3)OCCO4)SC2=S)[C@H](OC(C)=O)[C@@H](OC(C)=O)[C@@H]1OC(C)=O, the IC50 was 6.1 µM (cell growth or viability, MTT; 48 h).
With C[C@@H]1CC[C@@H]([C@@](O)(CNCc2ccc(F)cc2)COCc2ccccc2)[C@H](OCc2ccccc2)C1 the IC50 was 2.6 µM (cell growth or viability, MTT; 72 h).
With CC1(C)CC(=O)C2=C(C1)OC(N)=C(C#N)C2c1ccccc1F (stereo not drawn) the IC50 was 225 µM (cell growth or viability, MTT; 24 h).
O=C(O[C@@H]1Cc2c(O)cc(O)cc2O[C@@H]1c1cc(O)c(O)c(O)c1)c1cc(O)c(O)c(O)c1 gave an IC50 of 72.8 µM (cell growth or viability, CCK-8; 24 h).
